{"data": "Measurements of several laboratories", "note": "Every numbered part comes from another study and shows a few of its results, in no order. Several values in a cell are separate wells, animals, samples, runs or records.", "chain of UniProt Q13164 (whole entry, looked up)": "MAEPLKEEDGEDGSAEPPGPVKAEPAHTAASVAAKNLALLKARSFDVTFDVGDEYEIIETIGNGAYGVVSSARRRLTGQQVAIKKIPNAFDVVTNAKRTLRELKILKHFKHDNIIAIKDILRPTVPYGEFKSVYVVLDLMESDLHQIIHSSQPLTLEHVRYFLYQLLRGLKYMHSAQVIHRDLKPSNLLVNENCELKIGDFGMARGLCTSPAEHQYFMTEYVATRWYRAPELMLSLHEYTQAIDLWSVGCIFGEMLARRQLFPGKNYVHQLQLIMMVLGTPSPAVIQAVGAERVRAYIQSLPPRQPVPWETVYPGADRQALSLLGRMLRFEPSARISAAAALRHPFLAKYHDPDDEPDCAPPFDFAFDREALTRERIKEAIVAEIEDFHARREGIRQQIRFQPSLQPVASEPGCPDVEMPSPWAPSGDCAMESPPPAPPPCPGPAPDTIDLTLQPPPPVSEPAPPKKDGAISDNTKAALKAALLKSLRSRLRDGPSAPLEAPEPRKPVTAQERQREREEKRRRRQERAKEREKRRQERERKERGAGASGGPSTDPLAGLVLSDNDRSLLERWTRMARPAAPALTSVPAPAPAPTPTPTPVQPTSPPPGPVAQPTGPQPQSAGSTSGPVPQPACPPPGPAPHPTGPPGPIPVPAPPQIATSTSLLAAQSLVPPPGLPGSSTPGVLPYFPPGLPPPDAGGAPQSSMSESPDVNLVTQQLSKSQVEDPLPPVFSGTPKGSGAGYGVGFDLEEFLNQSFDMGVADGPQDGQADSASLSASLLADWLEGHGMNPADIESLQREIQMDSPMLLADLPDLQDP", "chain of UniProt P36897 (whole entry, looked up)": "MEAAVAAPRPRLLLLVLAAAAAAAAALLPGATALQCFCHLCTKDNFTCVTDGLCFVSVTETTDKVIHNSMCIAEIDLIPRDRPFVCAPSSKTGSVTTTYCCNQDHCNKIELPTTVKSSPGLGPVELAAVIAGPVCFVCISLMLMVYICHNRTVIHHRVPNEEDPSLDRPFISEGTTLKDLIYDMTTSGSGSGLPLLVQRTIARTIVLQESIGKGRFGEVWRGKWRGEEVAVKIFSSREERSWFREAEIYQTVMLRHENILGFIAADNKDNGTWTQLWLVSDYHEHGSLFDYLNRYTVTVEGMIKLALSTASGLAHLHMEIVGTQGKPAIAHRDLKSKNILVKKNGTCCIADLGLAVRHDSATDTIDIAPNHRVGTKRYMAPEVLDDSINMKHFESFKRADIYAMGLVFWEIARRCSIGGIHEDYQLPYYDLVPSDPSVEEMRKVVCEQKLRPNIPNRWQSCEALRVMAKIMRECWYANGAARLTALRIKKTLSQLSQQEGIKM", "chain of UniProt P11802 (whole entry, looked up)": "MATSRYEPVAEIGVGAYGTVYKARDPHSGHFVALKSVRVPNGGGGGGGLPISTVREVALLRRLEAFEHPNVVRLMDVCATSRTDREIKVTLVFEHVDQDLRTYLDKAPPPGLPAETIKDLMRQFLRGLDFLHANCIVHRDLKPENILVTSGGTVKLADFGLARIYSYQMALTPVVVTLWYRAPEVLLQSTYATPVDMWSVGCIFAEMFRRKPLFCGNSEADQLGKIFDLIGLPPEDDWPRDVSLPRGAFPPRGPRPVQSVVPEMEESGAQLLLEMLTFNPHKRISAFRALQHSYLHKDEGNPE", "chain of UniProt P51955 (whole entry, looked up)": "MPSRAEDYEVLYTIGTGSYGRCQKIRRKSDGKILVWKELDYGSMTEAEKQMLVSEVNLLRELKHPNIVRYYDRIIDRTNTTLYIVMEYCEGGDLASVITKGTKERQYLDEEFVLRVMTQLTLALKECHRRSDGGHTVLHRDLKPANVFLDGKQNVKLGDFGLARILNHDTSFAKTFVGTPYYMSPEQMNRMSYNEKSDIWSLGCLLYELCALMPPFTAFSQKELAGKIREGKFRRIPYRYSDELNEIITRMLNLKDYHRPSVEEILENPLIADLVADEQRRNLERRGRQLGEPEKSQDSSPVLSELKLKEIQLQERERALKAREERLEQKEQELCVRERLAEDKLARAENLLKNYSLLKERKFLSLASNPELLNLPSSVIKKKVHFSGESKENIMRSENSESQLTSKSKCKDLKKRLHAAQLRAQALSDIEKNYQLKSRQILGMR", "chain of UniProt Q00535 (whole entry, looked up)": "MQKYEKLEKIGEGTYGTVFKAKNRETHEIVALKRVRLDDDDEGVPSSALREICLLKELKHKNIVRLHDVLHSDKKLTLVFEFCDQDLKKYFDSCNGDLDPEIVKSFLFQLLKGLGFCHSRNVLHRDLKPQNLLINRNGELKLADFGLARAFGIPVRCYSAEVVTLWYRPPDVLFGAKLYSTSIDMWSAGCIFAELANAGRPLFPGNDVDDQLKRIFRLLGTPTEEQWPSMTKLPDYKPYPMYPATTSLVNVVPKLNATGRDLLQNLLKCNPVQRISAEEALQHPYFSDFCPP", "chain of UniProt O43293 (whole entry, looked up)": "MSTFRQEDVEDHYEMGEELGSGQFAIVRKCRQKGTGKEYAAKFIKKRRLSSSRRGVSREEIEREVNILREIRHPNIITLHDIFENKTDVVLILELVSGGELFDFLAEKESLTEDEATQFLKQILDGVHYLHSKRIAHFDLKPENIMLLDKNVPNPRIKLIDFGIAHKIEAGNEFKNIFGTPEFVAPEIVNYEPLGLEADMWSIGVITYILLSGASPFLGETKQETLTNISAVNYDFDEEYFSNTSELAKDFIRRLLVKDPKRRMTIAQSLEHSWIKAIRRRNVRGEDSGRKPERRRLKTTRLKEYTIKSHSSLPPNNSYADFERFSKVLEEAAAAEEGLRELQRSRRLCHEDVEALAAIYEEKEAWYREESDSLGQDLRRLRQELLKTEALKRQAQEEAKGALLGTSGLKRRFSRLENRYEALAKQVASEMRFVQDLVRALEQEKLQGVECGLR", "chain of UniProt P10721 (whole entry, unmodified, looked up)": "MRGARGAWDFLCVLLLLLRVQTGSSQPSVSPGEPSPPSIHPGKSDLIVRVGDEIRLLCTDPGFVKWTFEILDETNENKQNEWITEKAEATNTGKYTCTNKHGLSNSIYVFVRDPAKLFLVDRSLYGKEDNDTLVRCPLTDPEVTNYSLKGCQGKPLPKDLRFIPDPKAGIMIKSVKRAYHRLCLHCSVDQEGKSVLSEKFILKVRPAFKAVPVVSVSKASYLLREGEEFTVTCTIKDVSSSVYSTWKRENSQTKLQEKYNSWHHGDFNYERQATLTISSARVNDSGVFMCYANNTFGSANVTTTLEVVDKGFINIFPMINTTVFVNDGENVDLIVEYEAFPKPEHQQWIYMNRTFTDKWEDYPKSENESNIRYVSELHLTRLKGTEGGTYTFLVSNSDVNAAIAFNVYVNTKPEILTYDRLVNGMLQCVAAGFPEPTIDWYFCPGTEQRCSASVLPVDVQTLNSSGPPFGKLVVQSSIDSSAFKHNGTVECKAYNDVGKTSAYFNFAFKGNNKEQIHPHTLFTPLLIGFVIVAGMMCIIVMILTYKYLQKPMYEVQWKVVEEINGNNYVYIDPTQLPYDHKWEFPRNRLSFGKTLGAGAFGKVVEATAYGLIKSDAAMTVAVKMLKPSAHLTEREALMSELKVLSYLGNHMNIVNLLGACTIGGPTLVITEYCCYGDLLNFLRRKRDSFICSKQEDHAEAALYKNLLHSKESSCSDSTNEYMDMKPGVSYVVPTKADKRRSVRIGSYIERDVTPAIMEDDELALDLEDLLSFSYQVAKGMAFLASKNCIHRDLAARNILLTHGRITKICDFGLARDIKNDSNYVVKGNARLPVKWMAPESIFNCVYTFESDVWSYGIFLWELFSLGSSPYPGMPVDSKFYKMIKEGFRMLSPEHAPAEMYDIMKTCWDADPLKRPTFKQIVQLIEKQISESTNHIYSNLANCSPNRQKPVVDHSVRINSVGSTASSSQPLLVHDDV", "chain of UniProt Q9H2K8 (whole entry, looked up)": "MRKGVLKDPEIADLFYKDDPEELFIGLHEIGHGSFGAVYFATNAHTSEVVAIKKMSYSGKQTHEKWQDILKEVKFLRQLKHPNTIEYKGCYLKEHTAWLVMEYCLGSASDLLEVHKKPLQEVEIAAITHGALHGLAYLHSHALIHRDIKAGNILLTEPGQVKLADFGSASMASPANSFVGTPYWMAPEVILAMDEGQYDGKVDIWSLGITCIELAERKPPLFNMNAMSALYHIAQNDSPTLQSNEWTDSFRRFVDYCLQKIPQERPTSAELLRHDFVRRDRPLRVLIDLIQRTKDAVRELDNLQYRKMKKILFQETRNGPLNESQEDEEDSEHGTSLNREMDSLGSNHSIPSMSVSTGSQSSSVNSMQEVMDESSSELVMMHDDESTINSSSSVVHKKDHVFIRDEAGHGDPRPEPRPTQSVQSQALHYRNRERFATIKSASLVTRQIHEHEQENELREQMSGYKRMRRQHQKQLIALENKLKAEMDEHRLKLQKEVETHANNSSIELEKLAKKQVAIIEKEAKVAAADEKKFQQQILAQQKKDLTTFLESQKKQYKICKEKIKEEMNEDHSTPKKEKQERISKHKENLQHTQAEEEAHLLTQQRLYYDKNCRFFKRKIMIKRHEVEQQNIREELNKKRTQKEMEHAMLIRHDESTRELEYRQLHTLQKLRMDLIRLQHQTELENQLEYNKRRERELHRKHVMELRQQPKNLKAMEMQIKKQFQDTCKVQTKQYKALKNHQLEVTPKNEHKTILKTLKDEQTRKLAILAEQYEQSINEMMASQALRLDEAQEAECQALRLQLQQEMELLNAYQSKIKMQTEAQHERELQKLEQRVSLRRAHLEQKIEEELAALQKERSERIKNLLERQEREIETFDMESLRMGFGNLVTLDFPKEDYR"}
{"data": "Series 1", "SMILES": "CC(C)CC(=O)N1CCc2nc(-c3ccc(Br)cc3)nc(N(C)Cc3ccccc3)c2C1", "technique": "competition with immobilised ligand", "tested at": "0.1 µM"}
{"target": "PIK3C2G (Homo sapiens, UniProt O75747)", "observed": "cell-free assay", "remaining binding": "100%"}
{"target": "Tyrosine-protein kinase ABL1, non-phosphorylated (ABL1, Homo sapiens, UniProt P00519, F317I)", "observed": "binding", "remaining binding": "100%"}
{"target": "KIT (Homo sapiens, UniProt P10721, T670I/V559D)", "observed": "cell-free assay", "remaining binding": "95%"}
{"target": "DAPK3 (Homo sapiens, UniProt O43293)", "observed": "cell-free assay", "remaining binding": "100%"}
{"target": "PIK3C3 (Homo sapiens, UniProt Q8NEB9)", "observed": "cell-free assay", "remaining binding": "100%"}
{"target": "ZAP70 (Homo sapiens, UniProt P43403)", "observed": "cell-free assay", "remaining binding": "91%"}
{"target": "NLK (Homo sapiens, UniProt Q9UBE8)", "observed": "cell-free assay", "remaining binding": "100%"}
{"target": "MAP2K5 (Homo sapiens, UniProt Q13163)", "observed": "cell-free assay", "remaining binding": "98%"}
{"target": "CDK7 (Homo sapiens, UniProt P50613)", "observed": "cell-free assay", "remaining binding": "65%"}
{"target": "TIE1 (Homo sapiens, UniProt P35590)", "observed": "cell-free assay", "remaining binding": "100%"}
{"target": "ACVRL1 (Homo sapiens, UniProt P37023)", "observed": "cell-free assay", "remaining binding": "99%"}
{"target": "EGFR (Homo sapiens, UniProt P00533, del747-752/P753S)", "observed": "cell-free assay", "remaining binding": "99%"}
{"target": "FLT3 (Homo sapiens, UniProt P36888, ITD)", "observed": "cell-free assay", "remaining binding": "99%"}
{"target": "MAPK7 (Homo sapiens, UniProt Q13164)", "observed": "cell-free assay", "remaining binding": "100%"}
{"target": "TAOK3 (Homo sapiens, UniProt Q9H2K8)", "observed": "cell-free assay", "remaining binding": "100%"}
{"target": "HIPK1 (Homo sapiens, UniProt Q86Z02)", "observed": "cell-free assay", "remaining binding": "64%"}
{"target": "EPHA6 (Homo sapiens, UniProt Q9UF33)", "observed": "cell-free assay", "remaining binding": "100%"}
{"data": "Series 2", "Compound": "COc1cc2ncnc(Nc3ccc(OCc4ccccc4)cc3)c2cc1OC", "observed": "enzyme activity", "mode": "inhibitor", "tested at": "0.5 µM", "relative to": "control"}
{"target": "Tyrosine-protein kinase Lyn, isoform B (LYN, Homo sapiens, UniProt P07948)", "remaining activity": "92.8%"}
{"target": "GRK3 (Homo sapiens, UniProt P35626)", "remaining activity": "99.6%"}
{"target": "PRKACA (Homo sapiens, UniProt P17612)", "remaining activity": "101%"}
{"target": "Protein kinase C beta type, isoform beta-I (PRKCB, Homo sapiens, UniProt P05771)", "remaining activity": "97.4%"}
{"target": "IKBKE (Homo sapiens, UniProt Q14164)", "remaining activity": "99.7%"}
{"target": "MAP3K3 (Homo sapiens, UniProt Q99759)", "remaining activity": "88.7%"}
{"target": "CHEK2 (Homo sapiens, UniProt O96017)", "remaining activity": "14.2%"}
{"target": "STK10 (Homo sapiens, UniProt O94804)", "remaining activity": "68.2%"}
{"target": "CAMKK2 (Homo sapiens, UniProt Q96RR4)", "remaining activity": "99.7%"}
{"target": "TGFBR2 (Homo sapiens, UniProt P37173)", "remaining activity": "121%"}
{"target": "Cyclin-dependent kinase 5, with p25 (CDK5, Homo sapiens, UniProt Q00535)", "remaining activity": "97.8%"}
{"target": "CAMK2D (Homo sapiens, UniProt Q13557)", "remaining activity": "95.8%"}
{"target": "STK11 (Homo sapiens, UniProt Q15831)", "remaining activity": "102%"}
{"target": "OXSR1 (Homo sapiens, UniProt O95747)", "remaining activity": "110%"}
{"target": "cGMP-dependent protein kinase 1, isoform beta (PRKG1, Homo sapiens, UniProt Q13976)", "remaining activity": "90.3%"}
{"target": "STK39 (Homo sapiens, UniProt Q9UEW8)", "remaining activity": "95.8%"}
{"target": "TGFBR1 (Homo sapiens, UniProt P36897)", "remaining activity": "95.7%"}
{"target": "IKBKB (Homo sapiens, UniProt O14920)", "remaining activity": "103%"}
{"target": "NEK2 (Homo sapiens, UniProt P51955)", "remaining activity": "107%"}
{"target": "Cyclin-dependent kinase 4, with cyclin D1 (CDK4, Homo sapiens, UniProt P11802)", "remaining activity": "99.2%"}
{"target": "MAPK9 (Homo sapiens, UniProt P45984)", "remaining activity": "106%"}
{"target": "DAPK2 (Homo sapiens, UniProt Q9UIK4)", "remaining activity": "99.9%"}
{"target": "DAPK1 (Homo sapiens, UniProt P53355)", "remaining activity": "98.5%"}
{"target": "PRKCA (Homo sapiens, UniProt P17252)", "remaining activity": "93.9%"}
{"data": "Series 3", "cell line": "A-375", "tested at": "100 µM", "time": "18 h"}
{"SMILES": "N#C/C(=C1/SC[C@@H](c2ccc(Cl)cc2Cl)S1)n1ccnc1", "viability": "20.9%"}
{"SMILES": "O=C(O)c1ccc(O)c(O)c1", "viability": "115%"}
{"SMILES": "CC(C)(O/N=C(\\C(=O)N[C@@H]1C(=O)N2C(C(=O)[O-])=C(C[n+]3ccccc3)CS[C@H]12)c1csc(N)n1)C(=O)O", "viability": "101%"}
{"SMILES": "CN1CCC(=C2c3ccccc3CCn3c(C=O)cnc32)CC1", "viability": "94.3%"}
{"SMILES": "COc1cc2nccc(Oc3ccc(NC(=O)C4(C(=O)Nc5ccc(F)cc5)CC4)cc3)c2cc1OC", "viability": "49.3% and 51.9%"}
{"SMILES": "C[C@H]1[C@@H](O)O[C@@H]2O[C@@]3(C)CC[C@H]4[C@H](C)CC[C@@H]1[C@@]24OO3", "viability": "22%"}
{"SMILES": "NNc1nncc2ccccc12", "viability": "112%"}
{"SMILES": "O=C(c1cc(Cc2n[nH]c(=O)c3ccccc23)ccc1F)N1CCN(C(=O)C2CC2)CC1", "viability": "84.8%"}
{"SMILES": "O=C(OC1C[C@@H]2CC3C[C@H](C1)N2CC3=O)c1c[nH]c2ccccc12 (stereo partly drawn)", "viability": "91%"}
{"SMILES": "CCN1CCN(C(=O)N[C@@H](C(=O)N[C@@H]2C(=O)N3[C@@H]2SC(C)(C)[C@@H]3C(=O)O)c2ccccc2)C(=O)C1=O", "viability": "97.7%"}
{"SMILES": "Clc1ccc(C(Cn2ccnc2)OCc2ccsc2Cl)c(Cl)c1 (stereo not drawn)", "viability": "8.67%"}
{"SMILES": "CCN1CCN(C(=O)N[C@@H](C(=O)N[C@@H]2C(=O)N3C(C(=O)O)=C(CSc4nnnn4C)CS[C@H]23)c2ccc(O)cc2)C(=O)C1=O", "viability": "88.8%"}
{"SMILES": "NC(=O)N1c2ccccc2CCc2ccccc21", "viability": "78.3%"}
{"SMILES": "CC(C)=CCC[C@](C)(O[C@@H]1O[C@H](CO[C@@H]2O[C@@H](CO)[C@H](O)[C@H]2O)[C@@H](O)[C@H](O)[C@H]1O)[C@H]1CC[C@]2(C)[C@@H]1[C@H](O)C[C@@H]1[C@@]3(C)CC[C@H](O[C@@H]4O[C@H](CO)[C@@H](O)[C@H](O)[C@H]4O[C@@H]4O[C@H](CO)[C@@H](O)[C@H](O)[C@H]4O)C(C)(C)[C@@H]3CC[C@]12C", "viability": "105%"}
{"SMILES": "CC(=O)O[C@H]1C[C@@]2(C)[C@@H](C[C@@H](O)[C@H]3[C@@]4(C)CC[C@@H](O)[C@@H](C)[C@@H]4CC[C@@]32C)/C1=C(\\CCC=C(C)C)C(=O)O", "viability": "81.1%"}
{"SMILES": "CC(=O)Nc1ccccc1", "viability": "94.4%"}
{"SMILES": "CC(C)(S)C(N)C(=O)O (racemic)", "viability": "109%"}
{"data": "Series 4", "SMILES": "CC(C)n1cnc(-c2ccc(F)cc2)c1-c1ncc(C(=O)Nc2ccc(N3CCN(C)CC3)cc2)[nH]1"}
{"technique": "phase 2a trial", "host": "patients with idiopathic pulmonary fibrosis", "dose": "60 mg once daily", "notes": "endocrine disorders SOC, grade 3", "patients with TEAE [%]": 0}
{"technique": "phase 2a trial", "host": "idiopathic pulmonary fibrosis patients", "route": "oral", "dose": "30 mg once daily", "notes": "disc protrusion, grade 3", "patients with TEAE [%]": 0}
{"technique": "phase 2a trial", "host": "idiopathic pulmonary fibrosis patients", "route": "oral", "dose": "60 mg once daily", "notes": "ESR increased, grade 4", "patients with TEAE [%]": 0}
{"technique": "phase 2a trial", "host": "patients with idiopathic pulmonary fibrosis", "dose": "60 mg once daily", "notes": "skin papilloma, maximum intensity grade 1", "patients with TEAE [%]": 0}
{"technique": "phase 2a trial", "host": "patients with idiopathic pulmonary fibrosis", "dose": "60 mg once daily", "notes": "endocrine disorders SOC, grade 5", "patients with TEAE [%]": 0}
{"technique": "phase 2a trial", "host": "patients with idiopathic pulmonary fibrosis", "dose": "dose not given", "notes": "free thyroxine decreased, grade 4, all arms", "patients with TEAE [%]": 0}
{"technique": "phase 2a trial", "host": "patients with idiopathic pulmonary fibrosis", "dose": "dose not given", "notes": "renal and urinary disorders SOC, grade 4, all arms", "patients with TEAE [%]": 0}
{"measured": "CA19-9 increased", "host": "idiopathic pulmonary fibrosis patients", "dose": "60 mg once daily", "patients with TEAE [%]": 0}
{"technique": "phase 2a trial", "host": "patients with idiopathic pulmonary fibrosis", "dose": "60 mg once daily", "notes": "endocrine disorders SOC, grade 4", "patients with TEAE [%]": 0}
{"technique": "phase 2a trial", "host": "idiopathic pulmonary fibrosis patients", "route": "oral", "dose": "dose not given", "notes": "GLDH increased, grade 1, all arms", "patients with TEAE [%]": 0}
{"technique": "phase 2a trial", "host": "patients with idiopathic pulmonary fibrosis", "dose": "30 mg once daily", "notes": "eye swelling, grade 2", "patients with TEAE [%]": 0}
{"technique": "phase 2a trial", "host": "patients with idiopathic pulmonary fibrosis", "dose": "60 mg once daily", "notes": "atopic dermatitis, grade 2", "patients with TEAE [%]": 0}
{"technique": "phase 2a trial", "host": "patients with idiopathic pulmonary fibrosis", "dose": "60 mg once daily", "notes": "renal and urinary disorders SOC, grade 3", "patients with TEAE [%]": 0}
{"technique": "phase 2a trial", "host": "patients with idiopathic pulmonary fibrosis", "dose": "dose not given", "notes": "endocrine disorders SOC, grade 3, all arms", "patients with TEAE [%]": 0}
{"note": "Some of these lines once more (series 3):"}
{"SMILES": "CC(C)(O/N=C(\\C(=O)N[C@@H]1C(=O)N2C(C(=O)[O-])=C(C[n+]3ccccc3)CS[C@H]12)c1csc(N)n1)C(=O)O", "viability": "101%"}
{"SMILES": "CN1CCC(=C2c3ccccc3CCn3c(C=O)cnc32)CC1", "viability": "94.3%"}
{"SMILES": "COc1cc2nccc(Oc3ccc(NC(=O)C4(C(=O)Nc5ccc(F)cc5)CC4)cc3)c2cc1OC", "viability": "49.3% and 51.9%"}
{"SMILES": "C[C@H]1[C@@H](O)O[C@@H]2O[C@@]3(C)CC[C@H]4[C@H](C)CC[C@@H]1[C@@]24OO3", "viability": "22%"}
{"SMILES": "NNc1nncc2ccccc12", "viability": "112%"}
{"SMILES": "O=C(c1cc(Cc2n[nH]c(=O)c3ccccc23)ccc1F)N1CCN(C(=O)C2CC2)CC1", "viability": "84.8%"}
{"SMILES": "O=C(OC1C[C@@H]2CC3C[C@H](C1)N2CC3=O)c1c[nH]c2ccccc12 (stereo partly drawn)", "viability": "91%"}
{"SMILES": "CCN1CCN(C(=O)N[C@@H](C(=O)N[C@@H]2C(=O)N3[C@@H]2SC(C)(C)[C@@H]3C(=O)O)c2ccccc2)C(=O)C1=O", "viability": "97.7%"}
